Measured values of several laboratories.
A part holds a random share of what one study measured. Substitutions count along the parent as printed.
Sequence of UniProt O15294 (whole entry, looked up): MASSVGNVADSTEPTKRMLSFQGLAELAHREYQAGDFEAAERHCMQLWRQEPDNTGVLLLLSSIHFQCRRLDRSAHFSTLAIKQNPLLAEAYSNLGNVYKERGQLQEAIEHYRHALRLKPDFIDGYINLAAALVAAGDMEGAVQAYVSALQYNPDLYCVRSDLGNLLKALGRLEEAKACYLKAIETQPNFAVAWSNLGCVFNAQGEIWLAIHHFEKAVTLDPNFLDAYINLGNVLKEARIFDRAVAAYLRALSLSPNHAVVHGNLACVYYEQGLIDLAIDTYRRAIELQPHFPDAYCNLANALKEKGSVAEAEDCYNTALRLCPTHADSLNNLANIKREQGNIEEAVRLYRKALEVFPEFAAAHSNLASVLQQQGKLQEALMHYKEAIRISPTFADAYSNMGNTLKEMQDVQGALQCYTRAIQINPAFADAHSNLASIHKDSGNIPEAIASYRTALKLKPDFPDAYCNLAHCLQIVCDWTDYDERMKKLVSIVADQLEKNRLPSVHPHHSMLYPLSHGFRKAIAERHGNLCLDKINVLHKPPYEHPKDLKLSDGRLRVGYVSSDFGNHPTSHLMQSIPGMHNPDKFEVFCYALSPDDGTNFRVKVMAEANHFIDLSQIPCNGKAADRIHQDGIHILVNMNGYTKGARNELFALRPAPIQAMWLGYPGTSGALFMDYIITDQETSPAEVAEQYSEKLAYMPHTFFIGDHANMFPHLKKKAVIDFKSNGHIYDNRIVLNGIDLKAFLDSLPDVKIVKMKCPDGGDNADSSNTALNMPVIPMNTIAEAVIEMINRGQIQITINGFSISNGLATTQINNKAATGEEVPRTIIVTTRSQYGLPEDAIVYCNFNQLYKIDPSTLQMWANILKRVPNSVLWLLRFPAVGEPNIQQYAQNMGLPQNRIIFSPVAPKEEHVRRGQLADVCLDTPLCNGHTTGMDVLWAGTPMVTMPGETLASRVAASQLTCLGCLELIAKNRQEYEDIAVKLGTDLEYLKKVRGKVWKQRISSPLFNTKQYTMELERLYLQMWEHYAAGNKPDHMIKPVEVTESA

Series 1
Target: Protein max, full length (MAX, Homo sapiens, UniProt P61244-2, residues 1-151)
Method: protein-binding microarray
Form: double-stranded DNA, one strand shown
Medium: in vitro
Concentration: not given
Setting: k-mer, scored over probes, only values ≥0.25
Reading: higher = stronger binding
Oligonucleotide	E-score
AGGCACGC	0.395
CGCGTCAC	0.264
AACGCGTG	0.455
ATGTGACG	0.357
CCACGTGC	0.497
CATGCCTC	0.377
GCACGCTA	0.4
ATGTGGGA	0.323

Series 2
Target: RNA binding protein fox-1 homolog 2, RRM domain, GST-SBP tag (RBFOX2, Homo sapiens, UniProt O43251-10, residues 100-194)
Method: RNA Bind-n-Seq
Form: RNA
Medium: in vitro
Concentration: 365 nM
Setting: natural RNA segment, single round, ends assumed
Relative to: no-protein control
Reading: higher = stronger binding
Constant ends, left off below: GGGAGUUCUACAGUCCGACGAUC … UGGAAUUCUCGGGUGCCAA
Residues (chain): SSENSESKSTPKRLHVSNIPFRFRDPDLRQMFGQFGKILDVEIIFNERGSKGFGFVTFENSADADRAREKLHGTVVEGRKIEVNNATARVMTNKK
Oligonucleotide	RBNS enrichment (R)
GUUGUUUCCCAAUCAAAGGUUAUUUCUAGAUGGCUAUAUGCUUUGUUGCAAUUUCUGCUUCCACCUAUUUUCCAAGCAUUUUACUUAAGAAGGAUACUGUGUAGUUGAAC	1.29
UUCCUCCUGAGAACUCAUGUUGCUGCCCUGGUUCUUUCUACAGCUCUGGGAUUUAGGGGGAGCCAACUCUUGGCCUUCCUUUGCUCCCUGACUGUCCUUACGUCCUCUCU	0.417
ACACAAACCUAAGCUAACAAAAUGACUGCAUUCGUCUCUUUUUUAAAGGUAGAGAUUAAACUGUAUAGACAGCAUAGGGAUGAAAGGAACCAAGCGUUUCUGUGGGAUUG	0.298
UACCGCCCUCUCAGUUCAACUUUGCUCACUCAGGUUUCCACUUGGAAGACAUCUCCACAAGUCAGAAGUUCAUGCUGGGUUUUGCUGGCAGAAGGACAUCCAAGCCUGCA	0.963
UUUGGUCUCUUUGACUUGGUUUCUAUAAAUGUUUUUAAAAUGAAGUAAAGCUCUUCUUUACGAGGGGAAUGCUGACUUGAAAUCCUGUAACAGAUGAGAAAGAGUCAUUA	0.303
GGAGUCAACAGAGUCACUGGGAACUGAGGCAGGAGUAUCAUCUGUGGGAGCUGGCUGCCCCACCCACACUCUCCAUCCCAUUCAAGACUGUGCCAUACCAGCUGAUCUGU	0.644
UCAGCCUACAUUCAACAAACGCCUCUUGAAUGUCUAUGAUUCCCCCAGACACAUGCUGACAGACACGAGGGAAGCAAGACAGAUUCUUUCUCCACUGUUAAACUCUGGGG	0.577
UGUCAGACUGUGGCUUAGCUCAGUGUGACCCAGACCUUGUGACCUGUAGCUGCCGAACCAGUAGCUCCUAAGAGCACAACCCAGGAUGGCCCAUCUGCUGCCCACCAAGU	0.261

Mixed results
P1: PafA, mature enzyme, eGFP fusion (Elizabethkingia meningoseptica, UniProt Q9KJX5); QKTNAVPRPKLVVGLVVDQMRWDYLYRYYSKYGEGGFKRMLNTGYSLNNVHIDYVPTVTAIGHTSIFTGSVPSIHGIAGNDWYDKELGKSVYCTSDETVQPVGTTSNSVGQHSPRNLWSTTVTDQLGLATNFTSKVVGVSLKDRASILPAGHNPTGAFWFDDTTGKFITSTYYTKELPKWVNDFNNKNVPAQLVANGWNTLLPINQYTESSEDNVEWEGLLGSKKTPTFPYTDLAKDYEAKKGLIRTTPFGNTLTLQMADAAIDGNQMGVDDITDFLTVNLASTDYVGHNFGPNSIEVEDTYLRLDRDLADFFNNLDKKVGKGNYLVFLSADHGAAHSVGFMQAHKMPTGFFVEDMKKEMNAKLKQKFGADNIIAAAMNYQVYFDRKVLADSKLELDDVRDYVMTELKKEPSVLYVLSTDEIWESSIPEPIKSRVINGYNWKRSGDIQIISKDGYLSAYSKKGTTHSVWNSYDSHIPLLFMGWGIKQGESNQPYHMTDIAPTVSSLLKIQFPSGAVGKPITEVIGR
Substance	target	assay	test system	conditions	how to read	endpoint	result
HTYHWANVHDDPQAR	UDP-N-acetylglucosamine--peptide N-acetylglucosaminyltransferase 110 kDa subunit (OGT, Homo sapiens, UniProt O15294)	binding, phage display NGS	peptide	concentration not given	relative to: input library	enrichment fold change	2.6
P1 D213G	tungstate, free oxyanion	microfluidic competitive inhibition	in vitro, cell-free expressed	not given, derived from inhibition constants, unchanged parent 2230 nM	lower = stronger binding	oxyanion analog dissociation constant	633 nM

For quick reference, copied from above (series 1):
Oligonucleotide	E-score
ATGTGACG	0.357
AGGCACGC	0.395
CGCGTCAC	0.264
